Results from different studies.
Protocols differ between the studies behind these lines. Values joined by “and” are separate records of one study, mostly repeats; a detail may differ. Numbers after ± are the reported error.
Target: Cannabinoid receptor 1 (CNR1, Homo sapiens, UniProt P21554)
UniProt P21554, sequence (whole entry, looked up): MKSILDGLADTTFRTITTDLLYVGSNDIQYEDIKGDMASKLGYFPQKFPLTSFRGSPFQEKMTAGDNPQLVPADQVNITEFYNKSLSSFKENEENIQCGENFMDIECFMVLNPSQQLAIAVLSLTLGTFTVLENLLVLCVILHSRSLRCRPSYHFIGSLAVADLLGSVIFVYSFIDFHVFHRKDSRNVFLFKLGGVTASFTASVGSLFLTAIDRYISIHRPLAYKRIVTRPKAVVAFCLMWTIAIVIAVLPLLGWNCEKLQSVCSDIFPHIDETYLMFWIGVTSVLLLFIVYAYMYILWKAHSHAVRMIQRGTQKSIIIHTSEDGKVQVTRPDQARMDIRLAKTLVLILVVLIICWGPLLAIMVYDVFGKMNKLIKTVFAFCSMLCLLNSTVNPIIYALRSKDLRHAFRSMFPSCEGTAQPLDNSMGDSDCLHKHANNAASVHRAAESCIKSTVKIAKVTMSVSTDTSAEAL

CCCCC(C)(C)c1cc(O)c2c(c1)OC(C)(C)C1CC=C(C)CC21 (stereo not drawn) — Ki (ligand displacement, radioligand; cell membranes): 0.0299 µM
CCCCCn1cc(C(=O)c2cccc3ccccc23)c2ccccc21 — EC50 (GIRK channel fluorescence, agonist; AtT20 expressing CB1): 0.0463 µM and 0.046 µM
CCCCCCC[C@@H](C/C=C/CCC(=O)N(C)C/C(=C/Cl)C/C(=C\C(=O)N1CC(O)CC1=O)OC)OC (stereo partly drawn) — EC50 (cAMP, agonist): 5.3 µM
COC(=O)c1ccc2c(C(CC(F)(F)F)c3cccs3)c(-c3ccccc3)[nH]c2c1 (single isomer, unassigned; (+)) — EC50 (agonist; compound alone): 0.682 ± 0.211 µM
C[C@@]1(Cc2ccccc2)COc2cc(C(=O)N3CCCCC3)ccc21 — EC50 (GTPγS binding, agonist; cell membranes): > 10 µM
CCCCCCN1C(=O)/C(=N\NC(=O)c2ccccc2)c2ccccc21 — Ki: 0.162 ± 0.0076 µM
CCc1c(C(=O)NCCc2ccc(N3CCCCC3)cc2)[nH]c2ccc(Cl)cc12 — IC50 (cAMP signalling, negative allosteric modulator; mean over orthosteric agonists): 0.94 µM
CCCCCc1ccc(-c2c(C)c(C(=O)NN3CCCCC3)nn2-c2ccc(Cl)cc2Cl)cc1 — Ki (ligand displacement, radioligand; cell membranes): 0.0017 µM
CC1(C)C(C(=O)c2cn(CCCCCF)c3ccccc23)C1(C)C — EC50 (GIRK channel fluorescence, agonist; AtT20 expressing CB1): 0.214 ± 0.0149 µM
O=C(NN1CCCCC1)c1nn(-c2ccc(Cl)cc2Cl)c2c1CCCc1cc(Cl)ccc1-2 — Ki (ligand displacement, radioligand; cell membranes): 0.0046 µM
Cc1ccc(C(=O)c2cn(CCCCCCl)c3ccccc23)c2ccccc12 — EC50 (GIRK channel fluorescence, agonist; AtT20 expressing CB1): 0.231 ± 0.0354 µM
CCc1c(C(=O)NCCc2ccc(N3CCCCC3)cc2)[nH]c2ccc(N=C=S)cc12 — IC50 (β-arrestin1 recruitment, negative allosteric modulator, BRET; HEK293A; 30 min, added: anandamide 500 nM): 0.0486 µM

A few entries again:
CCc1c(C(=O)NCCc2ccc(N3CCCCC3)cc2)[nH]c2ccc(Cl)cc12 — IC50 (cAMP signalling, negative allosteric modulator; mean over orthosteric agonists): 0.94 µM
